Results pooled from the literature.
A part holds a random share of what one study measured. Positions count from the first letter of the parent shown.

Block 1
Target: RNA binding protein fox-1 homolog 2, RRM domain, GST-SBP tag (RBFOX2, Homo sapiens, UniProt O43251-10, residues 100-194)
Technique: RNA Bind-n-Seq
Molecule type: RNA
Sample: in vitro
Concentration: 365 nM
Notes: natural RNA segment, single round, ends assumed
Relative to: no-protein control
Reading: higher = stronger binding
Endpoint: RBNS enrichment (R)
Constant ends, left off below: GGGAGUUCUACAGUCCGACGAUC … UGGAAUUCUCGGGUGCCAA
Residues (chain): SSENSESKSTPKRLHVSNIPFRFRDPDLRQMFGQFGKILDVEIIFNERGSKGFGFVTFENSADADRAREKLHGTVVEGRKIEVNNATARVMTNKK
CCACAGACCUUUGGGCUGCCUUAUAUUGUGUGUGUGUGUGGGUGUGUGUGUGUUUUGACACAAAAACAAUGCAAGCAUGUGUCAUCCAUAUUUCUCUGCAUCUUCUCUUG: 5.76
AUCGACUAUCGGUUCUGUGCCUGUGCUCUGUUGUGUUGGAGGGAAGGACUGGUAGUUCUGAUUUUUACUCUGUGAACACUUUAUUUAAGGACAUUCUUUUUUAUUGGCGG: 4.1
UUAACUCCUUGAGGCCAGGCCAGAAGUGUUAGGAGCUAAGUAUGAAUGAACUGUGUAAUAAGAGAGGCAGAGAAAAUGCAGGACUCCAGUUGAGAAGGCUUAAUCUCCUG: 1.14
UGACUGACAUUCCUCAGUGGUCCUCACAGGUGGUUAUAGGGGGGCUGCCUCUCACCUCCGAGCACUACAUUGUGGCUGUCCCCUGCCCGCCUGCCCGCCUUCUGUCCUGG: 0.516
AACAAAAUAAUUUCUGUACUUUGGCAAUGUUACUCUAGUGUCUUCUCCCUAAUUCUUUUGUUUCUUUUGCAGAAUUAAGAAUAUUUCCUUGUUUAUUAGAUACAUCACUG: 0.531
UAGGACUGCAGUGUGGAGUUCACCUUGGAAGGGCGUUCUAGGUAGGAAGAGCCCGCAGGGCCAUGCAGACCUCAUGCCCAGCUCUCUGACGCUUGUGACAGUGCCUCUUC: 0.231
UCCAUGGCCACACUCCUGUGAAUGGGUAUCGGGGAGUUAGGAUCUUUCUUCUCCCAAUGCCUCUUGCUGGAAGCACUCUAUACCUCUCCACCUCCCUGGACUACUAAGCU: 0.638
CUGGGCAAGGCUGGAGGUACUGUAGAGAAUCCAGCUUGGGCCACUGCUUCCAUGUAGAGAAGUGGGACAGCAGGCCCUCCUUGGAGUUUCUGCACAGGUUUAGGUGAGUA: 0.511
ACUGUGUAAUUAUGUAUAAAGUUUUUUUAUUUAUUUGAAGUUAGACUAGAUAUACGUUUUUAAAUUUAACAUCUGGCUGGACAGUGUUCUAUUAACUCAUUGAAUGUGUU: 1.09
UAUGUAAAACACAUGGCUUUUCCUGUGUAUAUUUUUAAAAAUUAAAGAAAUGCACAUUUAAAAAGUGUUUUGUGGAACCAGUCUGUAUAAAUGUGCCAGGUGACAAAGGU: 0.524
AAAAGUCAUGCCACAGGAAGGGUCUAUUGCAGAAUUUCAAGUUCUGUUUAUAGUAAAAAGGAAGAGCGUUUCCUAAUCCCUCCUUUACCAUAUCCUACACAGAAAAAUAC: 0.291
CGCAAUGUUAGAAGAUGCCAUAAAGUCACAUGGACAACUCAUGGUACUUUUUCUGGGUUGGCAAUUUGAUGACCACUUUGGUUCAGUCAAAAUGUGUGUACUUUUGGGCC: 0.293

Block 2
Target: Interferon regulatory factor 7, full length, phosphomimetic (IRF7, Homo sapiens, UniProt Q92985, residues 1-503, S471D/S472D/S475D/S476D/S477D/S483D/S484D/S487D)
Chain of UniProt Q92985 (whole entry, unmodified, looked up): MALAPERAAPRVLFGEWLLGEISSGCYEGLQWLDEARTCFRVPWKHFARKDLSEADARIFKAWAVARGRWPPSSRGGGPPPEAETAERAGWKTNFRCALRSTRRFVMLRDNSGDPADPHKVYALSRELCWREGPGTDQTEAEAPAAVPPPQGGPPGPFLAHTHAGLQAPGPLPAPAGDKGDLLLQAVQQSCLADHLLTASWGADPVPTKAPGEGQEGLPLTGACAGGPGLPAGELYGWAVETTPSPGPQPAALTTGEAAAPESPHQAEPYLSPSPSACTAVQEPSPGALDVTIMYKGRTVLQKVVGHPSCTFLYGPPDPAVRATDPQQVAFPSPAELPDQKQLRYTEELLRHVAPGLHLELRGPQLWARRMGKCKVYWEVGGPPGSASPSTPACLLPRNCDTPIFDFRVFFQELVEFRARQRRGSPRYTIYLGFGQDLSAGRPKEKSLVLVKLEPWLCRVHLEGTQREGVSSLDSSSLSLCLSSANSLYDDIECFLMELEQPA
Technique: protein-binding microarray
Molecule type: double-stranded DNA, one strand shown
Sample: in vitro
Concentration: 2200 nM top
Notes: 60-bp whole probe
With: salmon DNA 0.4 mg/ml
Relative to: random background probes
Reading: higher = stronger binding
Endpoint: fitted relative affinity
Constant ends, left off below: GCCTAGCAC … GTCTTGATTCGCTTGACGCTGCTG
GATGGACTGGGTTTCGGGACGTGCTAG: 1.37 z-score
TCATTTTTGTATTTTTGACTGTGCTAG: 2.4 z-score
GACGAAGTGAGTTTCGAGACGTGCTAG: 2.03 z-score
GACGATTTCAGTATCGACACGTGCTAG: 1.06 z-score
GACGGTATCCGTTTCCTGACGTGCTAG: 1.48 z-score
TTAGATTCCAGTTTCGATTTGTGCTAG: 12.3 z-score
GACGGTTTCGGTATCGGCACGTGCTAG: 7.56 z-score
GACGGACTGGACTTTCCGGACGTGCTA: 0.267 z-score
TTAGGTATCGGGTGTCGGTTAGTGCTA: 0.114 z-score
TCAATGTTCACTATTTAACTGTGCTAG: 0.86 z-score
TTAGGTCTCCTACTGCTCTAGTGCTAG: 0.504 z-score
CAGAGCATGGATCTGGGAACGTGCTAG: -0.681 z-score
GACGATTCCTGTTTCGAGACGTGCTAG: 3.26 z-score
CCTCTTTTTTGTTCCACGCCGTGCTAG: 2.58 z-score
TTATATTTCGGGTTTCGATTAGTGCTA: 5.99 z-score
TTATGACTGGGTATCGGTTAGTGCTAG: 0.48 z-score
TTAGATATTGGGTTTCGATTAGTGCTA: 2.77 z-score

Block 3
Target: RING finger protein unkempt homolog, zinc fingers 1-6, GST-SBP tag (UNK, Homo sapiens, UniProt Q9C0B0, residues 30-357)
Chain of UniProt Q9C0B0 (30-357, looked up): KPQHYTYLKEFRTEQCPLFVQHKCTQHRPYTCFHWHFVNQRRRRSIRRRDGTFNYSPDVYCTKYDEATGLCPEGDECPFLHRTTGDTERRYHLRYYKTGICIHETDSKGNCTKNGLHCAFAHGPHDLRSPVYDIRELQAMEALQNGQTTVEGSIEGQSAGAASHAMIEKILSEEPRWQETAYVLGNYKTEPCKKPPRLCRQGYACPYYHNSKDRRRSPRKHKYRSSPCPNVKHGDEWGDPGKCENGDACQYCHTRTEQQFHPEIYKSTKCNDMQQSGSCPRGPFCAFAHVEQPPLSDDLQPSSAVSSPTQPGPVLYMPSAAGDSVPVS
Technique: RNA Bind-n-Seq
Molecule type: RNA
Sample: in vitro
Concentration: not given
Notes: RNA with constant flanks, human-mouse chimeric sites, ends assumed
Relative to: input RNA pool
Reading: higher = stronger binding
Endpoint: bound/input enrichment
Constant ends, left off below: GGGAGUUCUACAGUCCGACGAUC … CAACAGAGGAUUGAGCAUCA
UCCUGGUCGUGUCCCAGUGCAGGACGAUGUGAACAAAAACUCAAAGCGGACCCUCUAUUGUAGUUCUUGAUUCUCGAGUGCCAUUAUUAUUGUUUGUCUUUUUUUUUUUUUUUUUAAAGA: 1.55 ratio
AGGAGGAGGUUAAAGGGUGAGAGUGGGAUGGAGGAUUGUGUCAUGGCUCUGGAGACACUGUUCAGUGUCCUGCUUUCUCUGUGCAGACUUAUGGCUCCUUACACGCCCUUUCUGACUGAG: 0.139 ratio
GGACAUCUGUCAAAUUGUUAUGUUCCUGUGAAACAAGUGAACACUCUGAUACACUUCAUCUGCUUGUACAUUUAACUUUGUAUAAUAUGUAAAUAUGUUAAUCCAAGCAAUGUGUCACUU: 0.15 ratio
CGCUGGCGUUGAACUGUGGACUCUGAUGGCCUCCAUCUCUCAGGCACGUUUGCCUUCUCUUAGUCCCUGUUUUCGGGAUGUUAUGAAUCUCAGUACUGUGGUUUGAAAGCACCAGCUUUG: 0.249 ratio
GUGUCCUGCUUUCAACUUAAAUCACUGAGGCAUCUCUACUGUUCUGUGAGCAUCAGGACUGUAGCGCUGUGUCACCACAGAUGAGAAGUUAAGCAGCCUUUCUGUGGAGGGUGGGAAUGA: 0.142 ratio
AAAGAUCUACUGAGGCAAGGCAGCAAAUUUAGGAGAGACAUUUCAACAAUAUUGAUAGAGUUAGGAUUCCAAAUUAAAAAAAAAACUAAGACAUUAUACAUCAACAAAGCCAAUGUGUGG: 7.1 ratio
GUGUCCUGCUUUCAACUUAAAUCACUGAGGCAUCUCUACUGUUCUGUGAGCAUCAGGAUUUUAGUGCUGUGUCACCACAUGAGAGUUGUUAAGCAGCCUUUCUGUGGAGGGUGGGAAUGA: 0.174 ratio
CAUGUAUCUGCAGUACUUGAUGUGGAUUACUCUCCCACUGGGAAGGAAUUUGUGUCUGCCAGCUUUGAUAAGUCUAUUAGAAUCUUUCCUGUGGACAAGAGCCGAAGCAGGGAAGUGUAU: 0.471 ratio
GUGACUGGUGUUAAGAUUUCCCCUCAGCAAAGAAGUGCAGUAGUCACCAUAAUUCCAUCUGUGGUGAGUGCCAGUCAGAUUGUGGAGCUGGUCCCAGAACUCAGUUUAGACAUGGGAACU: 0.3 ratio
AAUUUCCUGUCAUACUUUUUAGACAUUCACAUCAGACGCCUUACUACCCUGGCCACAUUCUAGGUUUGUGUUAUUUCUCAGCUAUGGAUAUGAUCAAAUGAGAACACUGGCAGCCAGAUG: 0.728 ratio
AUUCCGAUUAUGGACACCGGUGAAAACCCAGAGGUUCCCUUCCCCCGGGACAUGAUCGACUUAGAGGCCAAUUUCGAGAAGAUUGAAAAUGAACUGAAGGAAAUCAACACAAACCAGGAA: 0.133 ratio

Block 4
Target: CCNA1, cyclin fold, Cln2 fusion (human)
Technique: yeast growth competition, sequencing
Sample: yeast
Notes: weak parent motif
Relative to: not given
Reading: higher = stronger binding
Endpoint: normalised enrichment score
Parent: E2F1 docking peptide (human); PPVKRRLDLETDH
D12M: 0.367
T11H: 0.141
T11V: 0.373
P2S: 0.24
H13I: 0.597
P1F: 0.77
D8T: 0.786
D8I: 0.487
T11L: 0.457
R6A: -0.0342
P1R: 0.0907
D8V: 0.373
P1D: 0.135
H13D: 0.251
R6S: 0.206
K4H: 0.449
E10G: 0.505
L7Q: 0.241
D8K: 0.465
R5T: 0.43
H13C: 0.35
P2L: 0.395
D8F: 0.486
R6I: 0.136
K4W: 0.194
